Experimental data collected from several papers.
Each line is one published result; not all experiments were run side by side. Several values in a cell are separate wells, animals, samples, runs or records.
Sialidase-3: Sialidase-3 (Homo sapiens, UniProt Q9UQ49)
PFF0160c: Dihydroorotate dehydrogenase (quinone), mitochondrial (PFF0160c, Plasmodium falciparum, UniProt Q08210)
PFF0160c E182D: Dihydroorotate dehydrogenase (quinone), mitochondrial (PFF0160c, Plasmodium falciparum, UniProt Q08210, E182D)
HLA class I histocompatibility antigen, B alpha chain: HLA class I histocompatibility antigen, B alpha chain (Homo sapiens, UniProt P01889)
KCNH2: Voltage-gated inwardly rectifying potassium channel KCNH2 (KCNH2, Homo sapiens, UniProt Q12809)
BCHE: Cholinesterase (BCHE, Equus caballus, UniProt P81908)

SMILES	tested on	assay	test system	setting	quantity	value
CCN[C@H]1[C@H]([C@H](O)[C@H](O)CO)OC(C(=O)O)=C[C@@H]1O	Sialidase-3	enzyme activity, inhibitor			IC50	190 µM
CCn1ncc2c([C@](O)(c3ccc(C(F)(F)F)c(Cl)c3)C3CC3)n(C)nc2c1=O	PFF0160c	enzyme activity, inhibitor			IC50	0.014 µM
COC(=O)c1cc(-c2cccc(NC(=O)Nc3c(C)cccc3C)c2)on1	Mycobacteroides chelonae	microbial growth, broth dilution	ATCC35752	48 h	MIC	> 64 µg/mL
CC(C)C[C@H](NC(=O)[C@H](Cc1ccccc1)NC(=O)[C@H](Cc1ccc(O)cc1)NC(=O)CNC(=O)[C@H](CCCCN)NC(=O)[C@H](CO)NC(=O)[C@H](CCC(N)=O)NC(=O)CNC(=O)[C@@H](NC(=O)[C@H](CO)NC(=O)[C@@H]1CCCN1C(=O)[C@H](CO)NC(=O)[C@H](CCC(N)=O)NC(=O)[C@H](Cc1ccc(O)cc1)NC(=O)[C@H](CCC(=O)O)NC(=O)[C@H](C)NC(=O)[C@H](CCCCN)NC(=O)[C@@H](N)Cc1ccccc1)C(C)C)C(=O)N[C@@H](Cc1ccccc1)C(=O)N[C@@H](CCCNC(=N)N)C(=O)N1CCC[C@H]1C(=O)N[C@@H](CCCNC(=N)N)C(=O)N[C@@H](CC(N)=O)C(N)=O	NMUR1 (Homo sapiens, UniProt Q9HB89)	ligand displacement, radioligand			IC50	4.27e-05 µM
CC(c1ccc(OC(F)(F)F)cc1)c1nn2c(-c3cccs3)nnc2s1 (stereo not shown)	PFF0160c E182D	enzyme activity, inhibitor, absorbance			IC50	0.804 µM
CC1(C)NC(=O)N(c2ccc(F)c(C(F)(F)F)c2)C1=O	Androgen receptor (AR, Homo sapiens, UniProt P10275)	reporter gene, antagonist			IC50	2.5 µM
O=C(Nc1cccc(Cl)c1Cl)Nc1ccnc2ccccc12	PFF0160c	enzyme activity, inhibitor, absorbance			IC50	1.54 µM
CCn1cc(C2CC2)c2c([C@H](N)c3ccc(C(F)(F)F)nc3)n(C)nc2c1=O	PFF0160c	enzyme activity, inhibitor, absorbance			IC50	0.2 to 0.3 µM
CC(NC(=O)c1ccc(-n2cnc3ccccc32)cc1)c1ccc(S(N)(=O)=O)cc1 (stereo not shown)	PFF0160c	enzyme activity, inhibitor, absorbance			IC50	7.41 µM
CC(C)[C@H](NC(=O)[C@H](Cc1c[nH]cn1)NC(=O)[C@@H]1CCCN1C(=O)[C@H](Cc1ccccc1)NC(=O)[C@H](C)NC(=O)[C@@H](N)Cc1c[nH]cn1)C(=O)N[C@H](C(=O)N[C@H](C(=O)N[C@@H](Cc1ccccc1)C(=O)O)[C@@H](C)O)C(C)C	HLA class I histocompatibility antigen, B alpha chain	cell-free assay			IC50	0.979 µM
Cn1nc2c(=O)n(C3CC3)ccc2c1[C@](O)(c1ccc(F)c(Cl)c1)C(F)(F)F	PFF0160c	enzyme activity, inhibitor			IC50	0.0126 µM
Cc1cc(Nc2ccc(C(C)(C)C)cc2)c2[nH]ncc2n1	PFF0160c E182D	enzyme activity, inhibitor, absorbance			IC50	6.69 µM
CCCCCc1cn([C@H]2[C@H]([C@H](O)[C@H](O)CO)OC(C(=O)O)=C[C@@H]2O)nn1	Sialidase-3	enzyme activity, inhibitor			IC50	> 500 µM
CC(C)n1ccc2c(Cc3ccc(C(F)(F)F)nc3)n(C)nc2c1=O	PFF0160c	enzyme activity, inhibitor			IC50	12.6 µM
CC(C)C[C@H](NC(=O)[C@H](CCC(=O)O)NC(=O)[C@H](CC(C)C)NC(=O)[C@@H]1CCCN1C(=O)[C@H](CCCCN)NC(=O)[C@H](CO)NC(=O)[C@H](Cc1ccc(O)cc1)NC(=O)[C@@H](NC(=O)[C@@H](N)Cc1ccc(O)cc1)[C@@H](C)O)C(=O)O	HLA class I histocompatibility antigen, B alpha chain	cell-free assay			IC50	2.35 µM
CCCCCCN[C@H]1[C@H]([C@H](O)[C@H](O)CO)OC(C(=O)O)=C[C@@H]1O	Sialidase-3	enzyme activity, inhibitor			IC50	430 µM
CC(C)C[C@H](NC(=O)[C@H]1O[C@@H]1C(=O)O)C(=O)NCCCCN=C(N)N	Cathepsin K (CTSK, Homo sapiens, UniProt P43235)	enzyme activity, inhibitor			IC50	0.00064 µM
Cc1c(C(=O)OC2CC2)nn(C)c1Cc1ccc(C(F)(F)F)nc1	PFF0160c	enzyme activity, inhibitor			IC50	0.1 µM
Cn1c(=O)cnc2ccc(F)c(CCNC[C@H]3CN(c4cnc5c(n4)NC(=O)CO5)C(=O)O3)c21	KCNH2	ion current, inhibitor, patch clamp		2 min, pH 7.4	IC50	62 µM
CCN(CC)C(=O)Oc1ccc(/C=C/C(=O)NC2CCN(Cc3ccccc3)CC2)cc1OC	BCHE	enzyme activity, inhibitor, Ellman			IC50	3.3 µM
CC(C)C[C@H](NC(=O)[C@@H](NC(=O)[C@H](CCCCN)NC(=O)[C@H](CC(=O)O)NC(=O)[C@H](Cc1ccc(O)cc1)NC(=O)[C@H](C)NC(=O)[C@@H](N)CCCNC(=N)N)[C@@H](C)O)C(=O)N[C@@H](Cc1ccc(O)cc1)C(=O)N[C@@H](Cc1ccccc1)C(=O)O	HLA class I histocompatibility antigen, B alpha chain	cell-free assay			IC50	7.83 µM
Nc1ncc(-c2nc(N3CCOCC3)nc(N3CCOCC3)n2)c(C(F)F)n1	MAP3K13 (Homo sapiens, UniProt O43283)	binding, competition with immobilised ligand		10 µM	remaining binding	100%
CN1C(=O)Cc2ccc(F)c(CCNCC[C@H]3CN(c4ccc5c(n4)NC(=O)CO5)C(=O)O3)c21	gyrA (Escherichia coli K-12, UniProt P0AES4)	enzyme activity, inhibitor			IC50	0.1 µM

SMILES	tested on	assay	test system	setting	quantity	value
O=C(Nc1cccc(CN2CCN(C(=O)c3cccc(Cl)c3)CC2)c1)c1cccs1	PFF0160c E182D	enzyme activity, inhibitor, absorbance			IC50	7.44 µM
CCN(CC)c1ccc(C=NNC(=O)c2ccc(F)cc2)c(OS(=O)(=O)c2ccc(OC)cc2)c1	CA2 (Homo sapiens, UniProt P00918)	enzyme activity, inhibitor, absorbance			IC50	0.112 µM
[2H]c1c([2H])c([C@]2([2H])CCCN2C(=O)C(C)(C)Oc2ccc3cn[nH]c3c2)c([2H])c([2H])c1C([2H])([2H])[2H]	DCLK2 (Homo sapiens, UniProt Q8N568)	binding, competition with immobilised ligand		1 µM	remaining binding	86%
CCCNC(=O)c1ccnc(-c2ccc(CNC3Cc4ccccc4C3)cc2)c1	PFF0160c E182D	enzyme activity, inhibitor, absorbance			IC50	> 10 µM
CC(C)(C)NC(=O)N[C@H]1[C@H]([C@H](O)[C@H](O)CO)OC(C(=O)O)=C[C@@H]1O	Sialidase-3	enzyme activity, inhibitor			IC50	> 500 µM
CCn1c(-c2ccccc2)cc2nnc3ccccc3c21	PFF0160c E182D	enzyme activity, inhibitor, absorbance			IC50	0.482 µM
CC(=O)N(C)[C@H]1[C@H]([C@H](O)[C@H](O)CO)OC(C(=O)O)=C[C@@H]1O	Sialidase-3	enzyme activity, inhibitor			IC50	> 500 µM
CC[C@H](C)[C@H](NC(=O)[C@H](Cc1c[nH]cn1)NC(=O)[C@H](CCCCN)NC(=O)[C@H](Cc1ccc(O)cc1)NC(=O)[C@@H](NC(=O)[C@@H](N)Cc1c[nH]cn1)C(C)C)C(=O)N[C@@H](CC(C)C)C(=O)N[C@H](C(=O)N[C@@H](Cc1ccccc1)C(=O)O)[C@@H](C)O	HLA class I histocompatibility antigen, B alpha chain	cell-free assay			IC50	8.64 µM
COC(=O)c1cc(-c2cccc(NC(=O)Nc3ccc(Cl)cc3)c2)on1	Klebsiella pneumoniae	microbial growth, broth dilution	BAA1705		MIC	> 64 µg/mL
CC[C@H](C)[C@H](NC(=O)[C@H](C)N)C(=O)N[C@@H](CC(N)=O)C(=O)N[C@@H](CC(=O)O)C(=O)N1CCC[C@H]1C(=O)N[C@@H](Cc1ccccc1)C(=O)O	ACE (Oryctolagus cuniculus, UniProt P12822)	enzyme activity, inhibitor			IC50	> 1000 µM
CCn1cc(Cl)c2c(Cc3ccc(N4CCN(C)CC4)nc3)n(C)nc2c1=O	PFF0160c	enzyme activity, inhibitor			IC50	1.58 µM
COc1ccc2[nH]c3c(c2c1)CCN(C)CC3	Voltage-dependent N-type calcium channel subunit alpha-1B (Homo sapiens, UniProt Q00975)	ion current, inhibitor, patch clamp			IC50	189 µM and > 180 µM
CCOC(=O)c1[nH]nc(Cc2ccc(C(F)(F)F)cc2)c1C	PFF0160c	enzyme activity, inhibitor, absorbance			IC50	> 100 µM
Cc1nn(C)cc1-c1nc2c(N3CCN(Cc4ccc(Cl)cc4)CC3)c(Cl)cnc2[nH]1	EPHB6 (Homo sapiens, UniProt O15197)	binding, competition with immobilised ligand		1 µM	remaining binding	73%
c1csc(-c2nnc3sc(Cc4ccc5c(c4)CCCC5)nn23)c1	PFF0160c	enzyme activity, inhibitor, absorbance			IC50	0.581 µM
CCN(C)C(=O)Oc1ccc(CCC(=O)N(CC)CC)cc1OC	BCHE	enzyme activity, inhibitor, Ellman			IC50	18.1 µM
CCn1cc(C)c2c([C@H](N)c3ccc(C(F)(F)F)nc3)n(C)nc2c1=O	PFF0160c	enzyme activity, inhibitor			IC50	0.251 µM
CC(C)(C)CN[C@H]1[C@H]([C@H](O)[C@H](O)CO)OC(C(=O)O)=C[C@@H]1O	Sialidase-3	enzyme activity, inhibitor			IC50	> 500 µM
NCCCC[C@H](N)C(=O)O	dapA (Escherichia coli K-12, UniProt P0A6L2)	enzyme activity, inhibitor			IC50	820 µM and 800 µM
COc1cc(CCC(=O)N2CCC(Cc3ccccc3)CC2)ccc1OC(=O)N(c1ccccc1)c1ccccc1	BCHE	enzyme activity, inhibitor, Ellman			IC50	29.3 µM
CN1C(=O)Cc2ccc(F)c(CCNC[C@H]3CN(c4ccc5c(n4)NC(=O)CO5)C(=O)O3)c21	KCNH2	ion current, inhibitor, patch clamp		2 min, pH 7.4	IC50	25 µM
CC(C)CCN[C@H]1[C@H]([C@H](O)[C@H](O)CO)OC(C(=O)O)=C[C@@H]1O	Sialidase-3	enzyme activity, inhibitor			IC50	400 µM
CCN(C)C(=O)Oc1ccc(CCC(=O)N2CCC(CCCc3ccccc3)CC2)cc1OC	BCHE	enzyme activity, inhibitor, Ellman			IC50	7.6 µM

Some of these lines once more:
SMILES	tested on	assay	test system	setting	quantity	value
CC(=O)N(C)[C@H]1[C@H]([C@H](O)[C@H](O)CO)OC(C(=O)O)=C[C@@H]1O	Sialidase-3	enzyme activity, inhibitor			IC50	> 500 µM
CC[C@H](C)[C@H](NC(=O)[C@H](Cc1c[nH]cn1)NC(=O)[C@H](CCCCN)NC(=O)[C@H](Cc1ccc(O)cc1)NC(=O)[C@@H](NC(=O)[C@@H](N)Cc1c[nH]cn1)C(C)C)C(=O)N[C@@H](CC(C)C)C(=O)N[C@H](C(=O)N[C@@H](Cc1ccccc1)C(=O)O)[C@@H](C)O	HLA class I histocompatibility antigen, B alpha chain	cell-free assay			IC50	8.64 µM
COC(=O)c1cc(-c2cccc(NC(=O)Nc3ccc(Cl)cc3)c2)on1	Klebsiella pneumoniae	microbial growth, broth dilution	BAA1705		MIC	> 64 µg/mL
CC[C@H](C)[C@H](NC(=O)[C@H](C)N)C(=O)N[C@@H](CC(N)=O)C(=O)N[C@@H](CC(=O)O)C(=O)N1CCC[C@H]1C(=O)N[C@@H](Cc1ccccc1)C(=O)O	ACE (Oryctolagus cuniculus, UniProt P12822)	enzyme activity, inhibitor			IC50	> 1000 µM
CCn1cc(Cl)c2c(Cc3ccc(N4CCN(C)CC4)nc3)n(C)nc2c1=O	PFF0160c	enzyme activity, inhibitor			IC50	1.58 µM
COc1ccc2[nH]c3c(c2c1)CCN(C)CC3	Voltage-dependent N-type calcium channel subunit alpha-1B (Homo sapiens, UniProt Q00975)	ion current, inhibitor, patch clamp			IC50	189 µM and > 180 µM
